Measurements from different studies.
Compare with care: the assays were run in different laboratories. Several values in a cell are separate wells, animals, samples, runs or records. Numbers after ± are the reported error.
E3 ubiquitin-protein ligase NEDD4: E3 ubiquitin-protein ligase NEDD4 (Homo sapiens, UniProt P46934)
MAPK8: Mitogen-activated protein kinase 8 (MAPK8, Homo sapiens, UniProt P45983)
GRM4: Metabotropic glutamate receptor 4 (GRM4, Homo sapiens, UniProt Q14833)
RPA1 N-terminal domain: Replication protein A 70 kDa DNA-binding subunit, N-terminal domain (RPA1, Homo sapiens, UniProt P27694)
Lysophospholipase-like protein 1: Lysophospholipase-like protein 1 (Mus musculus, UniProt Q3UFF7)

Protein sequences, listed by entry. Tags and fused reporters are not part of them. Lines headed by an entry give the natural chain unless they say otherwise; changes in a name come on top. Residues count along the entry.
UniProt P46934, whole entry, looked up: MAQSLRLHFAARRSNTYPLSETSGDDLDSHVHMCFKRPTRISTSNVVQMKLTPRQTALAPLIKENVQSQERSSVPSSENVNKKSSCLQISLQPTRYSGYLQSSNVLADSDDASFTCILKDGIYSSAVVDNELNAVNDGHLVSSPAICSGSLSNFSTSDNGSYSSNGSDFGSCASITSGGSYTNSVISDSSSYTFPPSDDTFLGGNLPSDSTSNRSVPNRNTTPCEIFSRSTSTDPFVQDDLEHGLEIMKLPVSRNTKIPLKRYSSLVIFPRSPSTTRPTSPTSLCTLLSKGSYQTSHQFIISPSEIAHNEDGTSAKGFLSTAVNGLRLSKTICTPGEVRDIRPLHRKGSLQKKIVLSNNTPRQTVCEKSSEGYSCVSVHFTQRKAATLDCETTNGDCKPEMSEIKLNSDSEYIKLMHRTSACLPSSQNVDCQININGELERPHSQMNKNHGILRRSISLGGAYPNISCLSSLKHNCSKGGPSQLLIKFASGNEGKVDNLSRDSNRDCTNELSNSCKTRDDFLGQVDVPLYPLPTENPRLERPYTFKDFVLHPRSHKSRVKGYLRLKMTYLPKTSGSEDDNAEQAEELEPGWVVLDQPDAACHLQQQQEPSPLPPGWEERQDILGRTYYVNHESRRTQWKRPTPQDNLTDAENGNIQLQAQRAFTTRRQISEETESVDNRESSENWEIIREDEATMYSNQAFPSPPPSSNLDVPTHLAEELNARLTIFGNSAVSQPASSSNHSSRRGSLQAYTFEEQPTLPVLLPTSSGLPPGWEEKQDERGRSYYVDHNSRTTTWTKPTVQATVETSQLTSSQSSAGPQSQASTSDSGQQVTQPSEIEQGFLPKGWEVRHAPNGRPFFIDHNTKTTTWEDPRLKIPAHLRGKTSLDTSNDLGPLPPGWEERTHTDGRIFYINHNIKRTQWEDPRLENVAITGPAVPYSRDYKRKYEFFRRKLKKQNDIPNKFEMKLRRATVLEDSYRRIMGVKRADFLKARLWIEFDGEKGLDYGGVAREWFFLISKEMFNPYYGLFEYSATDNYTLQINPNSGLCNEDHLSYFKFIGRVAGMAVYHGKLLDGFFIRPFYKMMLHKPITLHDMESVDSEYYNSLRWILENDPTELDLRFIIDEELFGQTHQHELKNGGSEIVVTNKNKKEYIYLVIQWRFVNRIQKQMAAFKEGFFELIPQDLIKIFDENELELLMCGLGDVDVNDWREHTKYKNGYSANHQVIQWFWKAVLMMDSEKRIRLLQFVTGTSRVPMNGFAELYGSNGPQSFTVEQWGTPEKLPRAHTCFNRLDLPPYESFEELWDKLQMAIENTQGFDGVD
UniProt Q3UFF7, whole entry: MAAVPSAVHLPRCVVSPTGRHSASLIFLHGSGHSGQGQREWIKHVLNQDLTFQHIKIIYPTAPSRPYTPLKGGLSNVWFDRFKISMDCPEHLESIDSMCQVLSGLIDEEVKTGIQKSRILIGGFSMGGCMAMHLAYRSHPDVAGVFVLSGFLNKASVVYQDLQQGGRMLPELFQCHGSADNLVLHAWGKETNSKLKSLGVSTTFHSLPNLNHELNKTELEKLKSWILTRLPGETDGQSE
UniProt Q2M2I8, whole entry: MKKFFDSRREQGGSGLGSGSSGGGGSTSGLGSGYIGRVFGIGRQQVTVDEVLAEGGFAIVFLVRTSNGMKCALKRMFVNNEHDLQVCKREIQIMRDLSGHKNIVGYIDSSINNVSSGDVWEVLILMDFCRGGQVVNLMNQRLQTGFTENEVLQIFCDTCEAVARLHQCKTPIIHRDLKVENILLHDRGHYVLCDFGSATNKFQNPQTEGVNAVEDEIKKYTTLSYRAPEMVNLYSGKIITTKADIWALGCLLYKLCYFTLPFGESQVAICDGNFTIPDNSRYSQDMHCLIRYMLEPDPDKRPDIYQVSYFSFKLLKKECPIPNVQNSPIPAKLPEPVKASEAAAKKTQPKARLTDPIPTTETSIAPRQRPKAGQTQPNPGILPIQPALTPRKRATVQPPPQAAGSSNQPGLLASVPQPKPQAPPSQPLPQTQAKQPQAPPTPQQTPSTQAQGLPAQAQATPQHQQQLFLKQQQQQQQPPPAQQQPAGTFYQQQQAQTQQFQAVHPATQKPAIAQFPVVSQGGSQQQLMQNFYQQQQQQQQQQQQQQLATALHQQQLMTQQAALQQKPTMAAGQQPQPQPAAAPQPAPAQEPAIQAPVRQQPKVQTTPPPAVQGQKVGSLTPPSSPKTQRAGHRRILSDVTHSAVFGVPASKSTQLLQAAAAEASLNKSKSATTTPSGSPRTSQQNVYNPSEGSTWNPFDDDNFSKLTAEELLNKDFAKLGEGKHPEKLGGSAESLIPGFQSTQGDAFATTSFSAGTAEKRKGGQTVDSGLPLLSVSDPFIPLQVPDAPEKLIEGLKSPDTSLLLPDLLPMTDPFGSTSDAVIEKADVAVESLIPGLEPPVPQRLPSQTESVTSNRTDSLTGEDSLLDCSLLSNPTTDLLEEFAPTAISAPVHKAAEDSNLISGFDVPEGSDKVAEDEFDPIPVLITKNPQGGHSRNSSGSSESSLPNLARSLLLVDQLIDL
UniProt O15151, 23-111 limits assumed: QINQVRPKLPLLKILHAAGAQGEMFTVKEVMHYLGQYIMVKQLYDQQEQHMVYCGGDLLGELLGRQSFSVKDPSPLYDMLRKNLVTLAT
UniProt P43220, whole entry, looked up: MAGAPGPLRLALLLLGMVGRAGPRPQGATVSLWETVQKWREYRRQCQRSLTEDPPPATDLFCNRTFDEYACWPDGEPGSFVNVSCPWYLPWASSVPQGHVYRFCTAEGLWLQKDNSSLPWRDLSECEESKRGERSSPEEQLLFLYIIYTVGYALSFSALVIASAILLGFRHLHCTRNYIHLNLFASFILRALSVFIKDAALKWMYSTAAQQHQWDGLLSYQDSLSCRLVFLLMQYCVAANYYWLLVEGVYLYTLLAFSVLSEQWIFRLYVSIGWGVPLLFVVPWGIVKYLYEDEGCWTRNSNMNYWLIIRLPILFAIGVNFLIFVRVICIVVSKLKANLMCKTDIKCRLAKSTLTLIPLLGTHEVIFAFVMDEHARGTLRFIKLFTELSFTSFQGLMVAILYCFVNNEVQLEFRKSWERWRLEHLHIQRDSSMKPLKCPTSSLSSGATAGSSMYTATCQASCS
UniProt Q923Y9, whole entry M268T: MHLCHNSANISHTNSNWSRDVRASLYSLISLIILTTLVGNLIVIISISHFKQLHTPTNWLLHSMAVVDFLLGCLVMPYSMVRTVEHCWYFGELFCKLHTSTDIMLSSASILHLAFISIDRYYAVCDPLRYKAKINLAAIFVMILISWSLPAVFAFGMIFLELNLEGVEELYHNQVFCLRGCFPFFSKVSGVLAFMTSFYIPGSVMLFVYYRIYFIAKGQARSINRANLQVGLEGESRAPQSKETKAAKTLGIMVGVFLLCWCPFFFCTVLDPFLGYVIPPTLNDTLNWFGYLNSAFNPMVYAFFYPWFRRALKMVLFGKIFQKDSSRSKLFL
UniProt P08912, whole entry: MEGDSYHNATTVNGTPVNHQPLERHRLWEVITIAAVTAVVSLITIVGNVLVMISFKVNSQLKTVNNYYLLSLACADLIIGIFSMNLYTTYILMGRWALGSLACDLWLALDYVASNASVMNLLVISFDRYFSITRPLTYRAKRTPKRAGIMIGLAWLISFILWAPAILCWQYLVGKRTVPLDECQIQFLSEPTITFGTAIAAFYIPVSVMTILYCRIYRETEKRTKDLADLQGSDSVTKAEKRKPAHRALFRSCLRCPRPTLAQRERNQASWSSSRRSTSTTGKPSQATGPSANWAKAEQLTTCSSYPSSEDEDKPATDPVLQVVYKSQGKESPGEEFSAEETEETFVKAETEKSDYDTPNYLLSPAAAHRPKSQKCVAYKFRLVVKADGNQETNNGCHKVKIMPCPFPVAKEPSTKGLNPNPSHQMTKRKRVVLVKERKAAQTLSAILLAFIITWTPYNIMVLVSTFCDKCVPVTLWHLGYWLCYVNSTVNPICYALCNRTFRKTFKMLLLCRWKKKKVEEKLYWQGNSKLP
UniProt Q99797, 36-713 limits assumed: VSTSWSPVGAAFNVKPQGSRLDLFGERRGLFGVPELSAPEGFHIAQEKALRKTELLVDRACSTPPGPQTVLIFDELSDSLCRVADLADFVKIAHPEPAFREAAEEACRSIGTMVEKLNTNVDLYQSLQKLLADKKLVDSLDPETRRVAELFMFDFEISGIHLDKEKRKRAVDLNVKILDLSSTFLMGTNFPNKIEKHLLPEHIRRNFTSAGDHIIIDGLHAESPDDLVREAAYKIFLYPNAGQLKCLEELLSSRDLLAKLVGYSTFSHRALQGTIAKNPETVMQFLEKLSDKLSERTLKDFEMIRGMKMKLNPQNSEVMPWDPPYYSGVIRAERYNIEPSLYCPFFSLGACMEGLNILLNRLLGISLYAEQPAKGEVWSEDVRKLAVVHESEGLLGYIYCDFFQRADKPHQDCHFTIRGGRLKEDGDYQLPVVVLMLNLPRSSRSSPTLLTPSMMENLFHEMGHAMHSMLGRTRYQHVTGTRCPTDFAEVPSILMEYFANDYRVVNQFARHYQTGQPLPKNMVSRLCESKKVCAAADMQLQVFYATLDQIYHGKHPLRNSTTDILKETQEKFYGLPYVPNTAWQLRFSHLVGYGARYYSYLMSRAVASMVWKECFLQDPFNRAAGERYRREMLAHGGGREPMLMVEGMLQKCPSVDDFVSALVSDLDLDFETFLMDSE
UniProt P43235, 115-329 limits assumed: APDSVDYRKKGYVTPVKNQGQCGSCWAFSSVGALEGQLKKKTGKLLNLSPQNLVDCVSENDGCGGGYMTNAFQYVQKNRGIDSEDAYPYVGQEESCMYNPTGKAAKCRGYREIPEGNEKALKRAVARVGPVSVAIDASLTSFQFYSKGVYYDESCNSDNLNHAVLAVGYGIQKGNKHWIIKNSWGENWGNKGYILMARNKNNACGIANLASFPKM
UniProt P11473, whole entry: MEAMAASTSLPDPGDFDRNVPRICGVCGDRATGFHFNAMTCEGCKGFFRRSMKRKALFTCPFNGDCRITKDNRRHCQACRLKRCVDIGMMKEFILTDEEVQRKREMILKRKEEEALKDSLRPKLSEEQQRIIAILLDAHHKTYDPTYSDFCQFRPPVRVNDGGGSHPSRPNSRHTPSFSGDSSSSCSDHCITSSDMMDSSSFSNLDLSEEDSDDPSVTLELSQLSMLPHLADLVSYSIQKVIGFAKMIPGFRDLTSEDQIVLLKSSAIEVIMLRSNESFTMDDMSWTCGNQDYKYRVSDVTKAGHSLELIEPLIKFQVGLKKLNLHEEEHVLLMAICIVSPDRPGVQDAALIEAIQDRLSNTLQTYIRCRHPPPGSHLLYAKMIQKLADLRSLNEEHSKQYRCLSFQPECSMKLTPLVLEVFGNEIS
UniProt Q8IUN9, whole entry, looked up: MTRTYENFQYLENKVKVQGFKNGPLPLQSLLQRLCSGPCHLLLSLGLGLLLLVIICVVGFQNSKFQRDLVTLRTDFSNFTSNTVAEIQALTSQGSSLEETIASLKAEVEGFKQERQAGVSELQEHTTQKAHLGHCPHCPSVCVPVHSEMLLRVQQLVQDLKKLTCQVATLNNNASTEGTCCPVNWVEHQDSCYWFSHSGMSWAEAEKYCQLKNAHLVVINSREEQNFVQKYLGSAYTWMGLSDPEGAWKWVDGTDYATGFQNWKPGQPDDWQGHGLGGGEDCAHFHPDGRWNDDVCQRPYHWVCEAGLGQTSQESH
UniProt B2RXH2, whole entry: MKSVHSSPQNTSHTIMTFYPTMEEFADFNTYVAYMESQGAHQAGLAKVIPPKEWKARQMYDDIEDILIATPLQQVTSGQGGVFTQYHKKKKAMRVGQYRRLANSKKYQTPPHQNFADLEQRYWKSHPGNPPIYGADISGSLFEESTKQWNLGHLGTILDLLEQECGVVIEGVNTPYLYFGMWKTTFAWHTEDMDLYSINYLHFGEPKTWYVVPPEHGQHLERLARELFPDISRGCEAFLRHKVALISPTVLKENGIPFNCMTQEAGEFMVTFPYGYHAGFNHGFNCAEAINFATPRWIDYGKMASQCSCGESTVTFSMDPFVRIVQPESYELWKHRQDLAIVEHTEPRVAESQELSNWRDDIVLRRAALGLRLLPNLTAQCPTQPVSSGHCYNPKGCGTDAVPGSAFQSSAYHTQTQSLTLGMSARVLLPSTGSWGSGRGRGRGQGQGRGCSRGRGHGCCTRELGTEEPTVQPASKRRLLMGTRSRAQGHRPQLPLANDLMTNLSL
UniProt O89017, 18-435 limits assumed: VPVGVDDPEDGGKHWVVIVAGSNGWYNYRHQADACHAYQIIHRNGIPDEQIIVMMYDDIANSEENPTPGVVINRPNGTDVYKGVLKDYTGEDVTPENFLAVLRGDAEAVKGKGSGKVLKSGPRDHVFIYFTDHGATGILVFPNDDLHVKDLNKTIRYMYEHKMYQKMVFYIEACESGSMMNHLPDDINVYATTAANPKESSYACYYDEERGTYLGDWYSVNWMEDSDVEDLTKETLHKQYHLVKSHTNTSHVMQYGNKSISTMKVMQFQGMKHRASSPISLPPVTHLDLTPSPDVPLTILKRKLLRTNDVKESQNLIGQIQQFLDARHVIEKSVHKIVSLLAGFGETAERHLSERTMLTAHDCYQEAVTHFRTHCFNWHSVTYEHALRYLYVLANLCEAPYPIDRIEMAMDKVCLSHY

`CC(C)n1nnc(-c2cc(O)cc(Nc3ncnn4ccc(CN5CCC(N)CC5)c34)c2)n1`: “potency fold increase” 2 fold (AAK1 (Homo sapiens, UniProt Q2M2I8); enzyme activity, inhibitor; relative to: 18).
For `O=C(Nc1cccc(F)c1)c1cc(S(=O)(=O)N2CCOCC2)c(Cl)cc1Cl`, the inhibition was 55.4 ± 1.7% (Autotaxin (ENPP2, Homo sapiens, UniProt Q13822); enzyme activity; 10 µM, 2 h, 37 °C, with: 100 µM LPC 16:0).
With `Cc1ccnc(NC(=O)c2ccc(-c3nn([C@@H]4CCCN(C(=O)C5CC5)C4)c4ncnc(N)c34)cc2)c1` the koff was 0.00431 ± 0.0003 s⁻¹ (Tyrosine-protein kinase BTK, non-phosphorylated (BTK, Homo sapiens, UniProt Q06187); TR-FRET binding kinetics; 37 °C, unphosphorylated protein).
For `CC(C)Oc1cc(C#N)ccc1C1=N[C@@H](c2cccc(Cl)c2)[C@@H](c2ccc(Cl)cc2)N1C(=O)N1CCNC(=O)C1`, the binding stoichiometry was 1.6 ± 0.2 (Protein Mdm4 (MDM4, Homo sapiens, UniProt O15151); isothermal titration calorimetry; concentration not given, 298 K).
For `Cc1[nH]c2cc(Cl)cc(Cl)c2c1CCn1cc(CCN)nn1`, the Emax was 101% (GLP1R (Homo sapiens, UniProt P43220); cAMP accumulation, positive allosteric modulator, HTRF; 0.6 µM, crude reaction product, with: GLP-1(9-36) at EC20; relative to: BETP).
`CCOC(=O)/C=C/CNCCCN1c2ccccc2CCc2ccc(Br)cc21`: “ubiquitination TR-FRET signal AUC” 144000 a.u. and 142000 a.u. and 147000 a.u. (E3 ubiquitin-protein ligase NEDD4; inhibitor, Ub-TR-FRET; 0.04572 µM, 1 h preincubation, HECT domain, with: ATP 2 mM; higher = more ubiquitination).
`NCC(c1ccccc1)c1cccc(Oc2ccccc2)c1` (stereo not shown) has an efficacy decrease of ≤ 12% (Trace amine-associated receptor 1 (Rattus norvegicus, UniProt Q923Y9, M268T); cAMP production, agonist; mutant; relative to: wild type).
The remaining activity of `Cc1cc(NC(=O)c2cccc(NC(=O)C3=CC(C)(C)CCC3=O)c2)ccc1Nc1nccc(-c2cccnc2)n1` is reported as 0.413 (MAPK8; kinase activity, inhibitor; 1.646 µM, unit not given, with: 10 mM GSH; relative to: DMSO).
With `CC(=O)N[C@@H](CC(C)C)C(=O)N[C@@H](CCCNC(=N)N)C(=O)N[C@@H](CO)C(=O)N[C@@H](CCCNC(=N)N)C(=O)Nc1ccc2c(CC(N)=O)cc(=O)oc2c1` the kcat/Km was 3500 M⁻¹ s⁻¹ (MALT1 (Homo sapiens, UniProt Q9UDY8); substrate, fluorogenic peptide hydrolysis; pH 7.5, catalytic domain 285 or 294 nM).
For `COc1ccc(NC(=O)CN2CCCN(S(=O)(=O)c3ccc(C(C)=O)cc3)CC2)c(OC)c1`, the maximal response was 42.9 ± 2.7% (GRM4; calcium mobilization, positive allosteric modulator; CHO cells with Gqi5; with: glutamate; relative to: PHCCC maximal response).
For `COC(=O)c1ccc(NC(=O)CSc2nc3ccc(OC)cc3[nH]2)cc1`, activity class read “active” (FPR1 (Homo sapiens, UniProt P21462); calcium mobilization, agonist; transfected HL-60 cells; concentration not given).
For `NC(=O)c1cn(-c2ccc(F)cc2)c2ccc(CCc3cccnc3)cc2c1=O`, the response was 1.9 ± 0.11% (Grm2 (Rattus norvegicus, UniProt P31421); calcium mobilization, negative allosteric modulator; 30 µM, with: glutamate 100 µM; relative to: glutamate maximum).
`CCCCN(C(=O)C1CCN(S(=O)(=O)c2ccc3[nH]ncc3c2)CC1)[C@@H]1CCc2ccccc21` gave a potentiation of 77 ± 3% (CHRM5 (Homo sapiens, UniProt P08912); positive allosteric modulator, calcium mobilization; CHO cells expressing human M5; with: acetylcholine EC20; relative to: ACh maximum).
`CCOC(=O)/C=C/CNCCCCN1c2ccccc2CCc2ccc(Cl)cc21`: “ubiquitination TR-FRET signal AUC” 90000 a.u. and 96500 a.u. and 93500 a.u. and 145000 a.u. and 97600 a.u. and 147000 a.u. (E3 ubiquitin-protein ligase NEDD4; inhibitor, Ub-TR-FRET; 0.005081 µM, 1 h preincubation, HECT domain, with: ATP 2 mM; higher = more ubiquitination).
`CC(C)C[C@H](NC(=O)[C@@H]1CCCN1C(=O)[C@H](CCC(N)=O)NC(=O)c1ccccc1N)C(=O)N[C@@H](CCC(N)=O)C(=O)N[C@@H](C)C(=O)N[C@@H](CCCCN)C(=O)N[C@H](C(=O)N[C@@H](CCC(N)=O)C(=O)NCCNc1ccc([N+](=O)[O-])cc1[N+](=O)[O-])C(C)C` has a kcat/Km of 29000 M⁻¹ s⁻¹ (Mitochondrial intermediate peptidase (MIPEP, Homo sapiens, UniProt Q99797); substrate, FRET peptide hydrolysis).
The ligand efficiency of `Cc1ccc(C(=O)Nc2ccc(C(C)C)cc2C(=O)O)cc1S(=O)(=O)Nc1ccc(Cl)c(Cl)c1` is reported as 0.23 (RPA1 N-terminal domain; binding, fluorescence polarisation competition; with: FITC-ATRIP probe).
`COC(=O)[C@@]1(C)C=C(C(=O)Nc2cccc(C(=O)NC34CC(Nc5nccc(-c6cccnc6)n5)(C3)C4)c2)C(=O)CC1` gave a remaining activity of 0.542 fraction of control (MAPK8; kinase activity, inhibitor; 0.02032 µM, with: 10 mM GSH).
`Cc1nc2ccc(S(=O)(=O)n3nc(CCc4ccc(Cl)cc4)nc3N)cc2o1` gave a probe labelling of 1.6 fold (Lysophospholipase-like protein 1; activator, gel-based ABPP FP-rhodamine; relative to: DMSO).
`Cc1ccc(C(=O)Nc2ccccc2C(=O)O)cc1S(=O)(=O)Nc1ccc(C(C)C)cc1` has a ligand efficiency of 0.17 (RPA1 N-terminal domain; binding, fluorescence polarisation competition; with: FITC-ATRIP probe).
`Nc1nc(SCc2ccc(Cl)cc2)nn1S(=O)(=O)c1ccoc1` gave a probe labelling of 2.4 fold (Lysophospholipase-like protein 1; activator, gel-based ABPP FP-rhodamine; relative to: DMSO).
`N#Cc1ccc2[nH]cc(/C=C/c3cccc([N+](=O)[O-])c3)c2c1` has an inhibition of 5% (Amyloid-beta precursor protein, Aβ1-40 (APP, Homo sapiens, UniProt P05067); Aβ40 aggregation, thioflavin T fluorescence; 25 µM).
`O=C(NCc1ccc(F)cc1)C(=O)[C@H](Cc1ccccc1)NC(=O)[C@H]1CCC(=O)N1Cc1ccc(F)cc1` has an inhibition of 10.4% (Cathepsin K (CTSK, Homo sapiens, UniProt P43235); enzyme activity, inhibitor; 1 µM).
For `Cc1cc(SCc2sc(-c3cccc4[nH]ccc34)nc2C)ccc1OCC(=O)O`, IC50 read “inactive” (Vitamin D3 receptor (VDR, Homo sapiens, UniProt P11473); reporter gene, antagonist; HEK-293T; up to 100 µM, CYP24A1 promoter luciferase, with: 1,25(OH)2D3 10 nM).
`O=C(NCCc1ccccc1)C12CC1/C(=N\O)c1ccccc1O2` (stereo not shown) has a response of 55 ± 3.5% (GRM4; positive allosteric modulator, calcium mobilization; CHO expressing Gqi5; concentration not given, with: glutamate EC20; relative to: (±)-PHCCC).
Under inhibition, `CN(C)C(=O)Cn1cc(-c2ccc(-c3cncc4ccncc34)cc2)cn1` is recorded as “no inhibition” (CDK2 (Homo sapiens, UniProt P24941); enzyme activity, SelectScreen; concentration not given).
`CC(=O)N[C@H]1[C@@H](O[C@H](C)[C@H](N)C(=O)O)O[C@H](CO)[C@H](O)[C@@H]1O` has a ΔH of -12 ± 0.3 kcal/mol (CLEC10A, carbohydrate recognition domain (Homo sapiens, UniProt Q8IUN9); binding, ITC; 293 K).
`CC(=O)Nc1ncc(CN2CC[C@H](Oc3cccc(F)n3)C[C@@H]2C)s1` [isotope labelled] has a specific binding of 8.3 nCi/mg (Protein O-GlcNAcase (Macaca mulatta, UniProt F6QIP2); autoradiography; monkey solitary tract nucleus; 5 nM, radiolabelled compound).
The probe labelling of `Nc1nc(NCCc2ccc(Cl)cc2)nn1S(=O)(=O)C1CCCCC1` is reported as 1 fold (Lysophospholipase-like protein 1; activator, gel-based ABPP FP-rhodamine; relative to: DMSO).
For `O=C(CF)c1ccc2c(Nc3ccccc3)ncnc2c1`, “IC50 fold decrease” read 5 fold (EPHB3 (Homo sapiens, UniProt P54753); kinase activity, inhibitor; 1 h preincubation; relative to: without preincubation).
For `COc1ccc(Nc2c(C(=O)O)ccnc2C(=O)O)cc1`, the remaining activity was 6% (KDM4E (Homo sapiens, UniProt B2RXH2); inhibitor, FDH-coupled spectrophotometry, measured: formaldehyde; 200 µM).
The kobs/[I] of `CCOC(=O)C1OC1C(=O)N(CC(N)=O)NC(=O)C1CCCN1C(=O)C1(NC(C)=O)CC1` (stereo not shown) is reported as 46500 M⁻¹ s⁻¹ (Legumain (Mus musculus, UniProt O89017); inhibitor; pH 5.8, with: Cbz-Ala-Ala-Asn-AMC 10 µM).

Excerpt of the above:
`CC(C)n1nnc(-c2cc(O)cc(Nc3ncnn4ccc(CN5CCC(N)CC5)c34)c2)n1`: “potency fold increase” 2 fold (AAK1 (Homo sapiens, UniProt Q2M2I8); enzyme activity, inhibitor; relative to: 18).
For `O=C(Nc1cccc(F)c1)c1cc(S(=O)(=O)N2CCOCC2)c(Cl)cc1Cl`, the inhibition was 55.4 ± 1.7% (Autotaxin (ENPP2, Homo sapiens, UniProt Q13822); enzyme activity; 10 µM, 2 h, 37 °C, with: 100 µM LPC 16:0).
With `Cc1ccnc(NC(=O)c2ccc(-c3nn([C@@H]4CCCN(C(=O)C5CC5)C4)c4ncnc(N)c34)cc2)c1` the koff was 0.00431 ± 0.0003 s⁻¹ (Tyrosine-protein kinase BTK, non-phosphorylated (BTK, Homo sapiens, UniProt Q06187); TR-FRET binding kinetics; 37 °C, unphosphorylated protein).
For `CC(C)Oc1cc(C#N)ccc1C1=N[C@@H](c2cccc(Cl)c2)[C@@H](c2ccc(Cl)cc2)N1C(=O)N1CCNC(=O)C1`, the binding stoichiometry was 1.6 ± 0.2 (Protein Mdm4 (MDM4, Homo sapiens, UniProt O15151); isothermal titration calorimetry; concentration not given, 298 K).
For `Cc1[nH]c2cc(Cl)cc(Cl)c2c1CCn1cc(CCN)nn1`, the Emax was 101% (GLP1R (Homo sapiens, UniProt P43220); cAMP accumulation, positive allosteric modulator, HTRF; 0.6 µM, crude reaction product, with: GLP-1(9-36) at EC20; relative to: BETP).
